Results from different studies.
A part holds a random share of what one study measured.
UniProt P31645, sequence (whole entry, looked up): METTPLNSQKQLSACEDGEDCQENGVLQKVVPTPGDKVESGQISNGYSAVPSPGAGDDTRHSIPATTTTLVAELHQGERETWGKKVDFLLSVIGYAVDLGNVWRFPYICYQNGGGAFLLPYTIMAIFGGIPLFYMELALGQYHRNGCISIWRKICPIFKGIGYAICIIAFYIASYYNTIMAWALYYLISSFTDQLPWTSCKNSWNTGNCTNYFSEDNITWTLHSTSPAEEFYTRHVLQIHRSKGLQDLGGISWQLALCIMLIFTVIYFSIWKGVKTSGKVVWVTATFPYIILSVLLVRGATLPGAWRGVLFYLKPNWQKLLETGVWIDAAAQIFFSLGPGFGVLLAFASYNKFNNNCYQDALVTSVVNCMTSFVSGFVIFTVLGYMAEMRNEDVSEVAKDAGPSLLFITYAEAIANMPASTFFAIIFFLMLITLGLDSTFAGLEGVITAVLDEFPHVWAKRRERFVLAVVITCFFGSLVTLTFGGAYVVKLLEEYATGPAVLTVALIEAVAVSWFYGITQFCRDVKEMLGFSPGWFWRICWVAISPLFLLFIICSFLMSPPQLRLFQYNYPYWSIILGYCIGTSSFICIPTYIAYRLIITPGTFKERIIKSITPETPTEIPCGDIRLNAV
UniProt P23975, sequence (whole entry, looked up): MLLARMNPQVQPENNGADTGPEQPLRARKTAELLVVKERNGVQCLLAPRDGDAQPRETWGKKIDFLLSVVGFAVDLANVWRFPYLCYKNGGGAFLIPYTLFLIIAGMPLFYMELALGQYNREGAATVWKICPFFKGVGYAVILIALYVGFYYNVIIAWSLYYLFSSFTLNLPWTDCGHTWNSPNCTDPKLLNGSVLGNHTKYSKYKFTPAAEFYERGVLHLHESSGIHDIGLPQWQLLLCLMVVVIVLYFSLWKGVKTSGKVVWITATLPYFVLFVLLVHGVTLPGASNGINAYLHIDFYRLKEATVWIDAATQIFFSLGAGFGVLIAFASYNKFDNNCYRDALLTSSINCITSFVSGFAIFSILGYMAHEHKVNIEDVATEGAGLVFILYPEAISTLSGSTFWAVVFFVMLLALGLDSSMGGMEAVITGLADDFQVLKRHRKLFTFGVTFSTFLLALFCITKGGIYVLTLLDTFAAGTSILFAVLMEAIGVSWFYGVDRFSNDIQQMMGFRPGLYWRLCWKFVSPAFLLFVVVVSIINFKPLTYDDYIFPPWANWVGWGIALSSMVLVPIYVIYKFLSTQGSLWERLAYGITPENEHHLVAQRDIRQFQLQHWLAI
UniProt P9WI81, sequence (whole entry, looked up): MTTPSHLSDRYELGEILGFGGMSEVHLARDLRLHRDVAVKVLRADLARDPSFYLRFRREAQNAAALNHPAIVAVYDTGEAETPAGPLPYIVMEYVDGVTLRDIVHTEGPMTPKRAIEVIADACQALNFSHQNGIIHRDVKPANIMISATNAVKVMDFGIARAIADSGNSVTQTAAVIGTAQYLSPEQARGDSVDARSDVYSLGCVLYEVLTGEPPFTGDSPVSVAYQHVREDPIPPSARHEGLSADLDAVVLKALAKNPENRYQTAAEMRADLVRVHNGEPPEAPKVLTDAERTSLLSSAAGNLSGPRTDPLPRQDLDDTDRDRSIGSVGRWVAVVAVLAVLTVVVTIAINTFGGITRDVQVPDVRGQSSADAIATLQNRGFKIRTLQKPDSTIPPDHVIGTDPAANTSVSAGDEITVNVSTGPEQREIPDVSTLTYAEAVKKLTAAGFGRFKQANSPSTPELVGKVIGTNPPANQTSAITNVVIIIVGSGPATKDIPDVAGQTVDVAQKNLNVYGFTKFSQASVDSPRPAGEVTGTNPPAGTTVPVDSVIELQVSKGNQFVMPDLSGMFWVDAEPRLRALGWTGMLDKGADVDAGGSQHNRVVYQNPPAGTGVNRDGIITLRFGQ
UniProt Q01959, sequence (whole entry, looked up): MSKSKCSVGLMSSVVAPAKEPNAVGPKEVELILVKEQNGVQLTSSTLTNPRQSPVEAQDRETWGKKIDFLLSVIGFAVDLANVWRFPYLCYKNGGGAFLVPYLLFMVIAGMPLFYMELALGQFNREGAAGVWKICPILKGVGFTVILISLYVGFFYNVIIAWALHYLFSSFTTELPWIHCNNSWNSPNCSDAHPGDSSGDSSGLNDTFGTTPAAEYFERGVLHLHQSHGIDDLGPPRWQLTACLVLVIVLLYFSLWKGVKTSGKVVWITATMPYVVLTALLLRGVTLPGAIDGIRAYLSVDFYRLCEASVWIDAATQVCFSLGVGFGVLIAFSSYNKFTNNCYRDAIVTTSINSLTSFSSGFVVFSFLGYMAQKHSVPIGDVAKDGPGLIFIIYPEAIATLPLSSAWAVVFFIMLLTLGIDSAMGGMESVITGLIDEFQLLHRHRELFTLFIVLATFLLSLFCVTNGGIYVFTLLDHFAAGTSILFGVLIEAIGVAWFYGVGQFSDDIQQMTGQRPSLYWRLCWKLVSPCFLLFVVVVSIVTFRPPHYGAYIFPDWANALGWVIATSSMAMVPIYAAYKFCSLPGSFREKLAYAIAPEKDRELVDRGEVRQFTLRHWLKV

Study 1 — organism: Sarcocystis neurona; observed: parasite growth; concentration: 10 µM; time: 96 h; reference: untreated
Under “log2 fold change”, `C[C@]12CCC(=O)C[C@@H]1CC[C@@H]1[C@@H]2CC[C@@]2(C)[C@H]1CC[C@]2(C)O` is recorded as -0.12.
Under “log2 fold change”, `Oc1ccc2c3c1O[C@H]1[C@@H](O)CC[C@@]4(O)[C@@H](C2)N(CC2CCC2)CC[C@]314` is recorded as 0.23.
Under “log2 fold change”, `CC(C)/N=c1\cc2n(-c3ccc(Cl)cc3)c3ccccc3nc-2cc1Nc1ccc(Cl)cc1` is recorded as -5.86.
Under “log2 fold change”, `Cc1ccc(-c2nc3ccc(C)cn3c2CC(=O)N(C)C)cc1` is recorded as 1.49.
`COc1cc2c(cc1OC)[C@@]13CCN4CC5=CCO[C@H]6CC(=O)N2[C@H]1[C@H]6[C@H]5C[C@H]43` — result for “log2 fold change”: -0.18.
`CCOC(=O)C1(c2ccccc2)CCN(CCC(C#N)(c2ccccc2)c2ccccc2)CC1`: “log2 fold change” -0.15.
For `NCCc1ccccn1`, “log2 fold change” read -0.18.
`CCc1nc(N)nc(N)c1-c1ccc(Cl)cc1` — result for “log2 fold change”: -2.68.
For `C[C@]12Cc3c[nH]nc3C[C@@H]1CC[C@@H]1[C@@H]2CC[C@@]2(C)[C@H]1CC[C@]2(C)O`, “log2 fold change” read -0.16.
Under “log2 fold change”, `CNC1=Nc2ccc(Cl)cc2C(c2ccccc2)=[N+]([O-])C1` is recorded as 0.26.

Study 2 — observed: ligand displacement; concentration: 10 µM
SMILES: C[C@@H]1CN(c2cc(-c3n[nH]c4ccc(OC5(C)CC5)cc34)ncn2)C[C@H](C)O1
The inhibition was -2.29% (SLC6A4 (Homo sapiens, UniProt P31645)).
The inhibition was -24.4% (SLC6A3 (Homo sapiens, UniProt Q01959)).
For SLC6A2 (Homo sapiens, UniProt P23975): inhibition read 7.45%.

Study 3 — cell line: A-375; concentration: 100 µM; time: 36 h
`CCC[C@H](NC(=O)[C@@H]1[C@H]2CCC[C@H]2CN1C(=O)[C@@H](NC(=O)[C@@H](NC(=O)c1cnccn1)C1CCCCC1)C(C)(C)C)C(=O)C(=O)NC1CC1` gave a viability of 22.3%.
`Cc1cccc([C@H](C)c2cnc[nH]2)c1C` gave a viability of 106%.
With `CNCC(O)c1ccc(O)cc1` (stereo not shown) the viability was 113%.
With `O=P1(N(CCCl)CCCl)NCCCO1` (stereo not shown) the viability was 95.8%.
With `O=C(CCCN1CCC2(CC1)C(=O)NCN2c1ccccc1)c1ccc(F)cc1` the viability was 7.43%.
For `C[C@]12C=CC(=O)C=C1CC[C@@H]1[C@@H]2CC[C@@]2(C)[C@H]1CC[C@]2(C)O`, the viability was 48.4%.
The viability of `C[C@@H]1CC[C@@]2(OC1)O[C@H]1[C@@H](O)[C@H]3[C@@H]4CC[C@H]5C[C@@H](O[C@@H]6O[C@H](CO)[C@H](O[C@@H]7O[C@H](CO)[C@@H](O)[C@H](O[C@@H]8OC[C@@H](O)[C@H](O)[C@H]8O)[C@H]7O[C@@H]7O[C@H](CO)[C@H](O)[C@H](O[C@@H]8O[C@H](CO)[C@@H](O)[C@H](O)[C@H]8O)[C@H]7O)[C@H](O)[C@H]6O)[C@H](O)C[C@]5(C)[C@H]4CC[C@]3(C)[C@H]1[C@@H]2C` is reported as -1.53%.
`O=C(O)[C@@H]1[C@H](C(=O)O)[C@H]2CC[C@@H]1O2` has a viability of 54.8%.
The viability of `C[C@]12CC[C@H]3[C@@H](CCC4=CC(=O)CC[C@@]43C)[C@@H]1CC[C@@H]2O` is reported as 73.8%.
`CC[C@@]1(O)C(=O)OCc2c1cc1n(c2=O)Cc2cc3cc(O)ccc3nc2-1` gave a viability of 26%.

Study 4 — cell line: HEK-293T; observed: pseudovirus infection; technique: FDA-approved drug library counter-screen; organism: VSV pseudotyped with VSV-G; concentration: 10 µM; time: 16 h; reference: vehicle-treated
For `C[C@H](Cc1cc2c(c(C(N)=O)c1)N(CCCO)CC2)NCCOc1ccccc1OCC(F)(F)F`, the GFP-positive cells was 104%.
`C[C@@H](O)[C@H]1C(=O)N2C(C(=O)O)=C(SCCN=CN)C[C@H]12` has a GFP-positive cells of 104%.
`CN(N=O)C(=O)N[C@@H](C=O)[C@@H](O)[C@H](O)[C@H](O)CO` gave a GFP-positive cells of 115%.
`NS(=O)(=O)c1cc2c(cc1Cl)N=CNS2(=O)=O` has a GFP-positive cells of 102%.
The GFP-positive cells of `CCC(C)(C)C(=O)O[C@H]1C[C@@H](C)C=C2C=C[C@H](C)[C@H](CC[C@@H]3C[C@@H](O)CC(=O)O3)[C@H]21` is reported as 132%.
With `N#Cc1ccccc1-c1cc(-c2ccccn2)cn(-c2ccccc2)c1=O` the GFP-positive cells was 102%.
The GFP-positive cells of `CC(C)CC(N(C)C)C1(c2ccc(Cl)cc2)CCC1` (stereo not shown) is reported as 125%.
`COC(=O)C1=C(C)NC(C)=C(C(=O)OC(C)C)C1c1cccc2nonc12` (stereo not shown) has a GFP-positive cells of 99.5%.
With `c1ccc2[nH]c(-c3cscn3)nc2c1` the GFP-positive cells was 76.6%.
With `CC(=O)OCC(=O)[C@@]12OC3(CCCC3)O[C@@H]1C[C@H]1[C@@H]3CCC4=CC(=O)C=C[C@]4(C)[C@@]3(F)[C@@H](O)C[C@@]12C` the GFP-positive cells was 101%.
With `Cc1nc(Nc2ncc(C(=O)Nc3c(C)cccc3Cl)s2)cc(N2CCN(CCO)CC2)n1` the GFP-positive cells was 91.1%.
For `C[C@]12Cc3c[nH]nc3C[C@@H]1CC[C@@H]1[C@@H]2CC[C@@]2(C)[C@H]1CC[C@]2(C)O`, the GFP-positive cells was 96.3%.
`N#CC1(c2ccc(NC(=O)c3cccnc3NCc3ccncc3)cc2)CCCC1` has a GFP-positive cells of 112%.
With `Nc1ccn([C@@H]2O[C@H](CO)[C@@H](O)C2(F)F)c(=O)n1` the GFP-positive cells was 98.2%.
`NC(=O)c1cccnc1` gave a GFP-positive cells of 86.8%.
`CCOc1nc2cccc(C(=O)O)c2n1Cc1ccc(-c2ccccc2-c2nnn[nH]2)cc1` has a GFP-positive cells of 99.5%.
For `CCCCNc1cc(C(=O)O)cc(S(N)(=O)=O)c1Oc1ccccc1`, the GFP-positive cells was 107%.
With `COCC(=O)Nc1c(I)c(C(=O)NCC(O)CO)c(I)c(C(=O)N(C)CC(O)CO)c1I` (stereo not shown) the GFP-positive cells was 129%.
`C/C(=C\C(=O)OCCCCCCCCC(=O)O)C[C@@H]1OC[C@H](C[C@@H]2O[C@H]2[C@@H](C)[C@H](C)O)[C@@H](O)[C@H]1O` gave a GFP-positive cells of 95.5%.
The GFP-positive cells of `CC(=O)N(CC(O)CO)c1c(I)c(C(=O)NCC(O)CO)c(I)c(C(=O)NCC(O)CO)c1I` (stereo not shown) is reported as 81.2%.
`O=c1ccc2ccc(OCCCCN3CCN(c4cccc5sccc45)CC3)cc2[nH]1` has a GFP-positive cells of 103%.
For `C[N+]1(C)CCCC(OC(=O)C(O)(c2ccccc2)c2ccccc2)C1` (stereo not shown), the GFP-positive cells was 88.5%.

Single results of other studies
`Cc1ccc(NC(=O)c2ccnc(C(F)(F)F)c2)cc1-c1cc(OCCO)nc(N2CCOCC2)c1` gave a remaining binding of 70% (Serine/threonine-protein kinase PknB (pknB, Mycobacterium tuberculosis, UniProt P9WI81); binding; 1 µM).

Repeated from above (study 2):
The inhibition was -2.29% (SLC6A4 (Homo sapiens, UniProt P31645)).
For SLC6A2 (Homo sapiens, UniProt P23975): inhibition read 7.45%.
The inhibition was -24.4% (SLC6A3 (Homo sapiens, UniProt Q01959)).
